# Assay results pooled from the literature.
# Compare with care: the assays were run in different laboratories.
# Target: Casein kinase I isoform gamma-1 (CSNK1G1, Homo sapiens, UniProt Q9HCP0)
SMILES,test,conditions,how to read,measurement,result
O=C(Cc1ccc(OCc2ccccc2)cc1)NC1(C(=O)O)CCN(C(=O)c2ccc(-c3cccc(Cl)c3)cc2)CC1,"enzyme activity, inhibitor",10 µM,,activity vs control,88%
C=CC(=O)Nc1cccc(-c2cnc3[nH]cc(C(=O)NC(C)(C)C)c3n2)c1,"enzyme activity, inhibitor",0.1 µM,,inhibition,7%
C=CC(=O)N1Cc2nc(-c3cc(-c4cc(Cl)cnc4Cl)c(F)cc3F)n(-c3ccncn3)c2C1,"cell-free assay, inhibitor",1 µM,,inhibition,11%
Cc1cccc(O[C@H]2CCC[C@@H](C(C)CNCc3ccncc3)C2)c1 (relative stereo),"kinase activity, kinome panel screening",10 µM,,inhibition,-8%
NC(=O)C[C@H]1CCc2sc3ncnc(O[C@H]4CC[C@H](N5CCOCC5)CC4)c3c21,"enzyme activity, inhibitor",10 µM,,inhibition,5%
O=C(O)CCC(=O)c1cccc(NS(=O)(=O)c2c[nH]c3ncccc23)c1,"kinase activity, radiometric",10 µM,,remaining activity,104%
CNC(=O)C[C@H](Cc1ccc(C#N)cc1)NC(=O)c1cc(-c2ccc(CN[C@H](C)c3ccc(C)cc3)o2)ccc1Cl,"enzyme activity, inhibitor",1 µM,,activity vs control,100%
Cc1cnc2nc1Nc1cccc(c1)COC/C=C/COCc1cc(ccc1OCCN1CCOCC1)N2,cell-free assay,0.1 µM,,remaining signal,86%
C=CC(=O)N1CCCC(n2c(=O)c3ncccc3n(Cc3ccc(Oc4ccccc4)cc3)c2=O)C1 (stereo not drawn),"cell-free assay, competition with immobilised ligand",1 µM,,remaining binding,100%
C=CC(=O)N1CCc2ccc(-n3c(=O)ccc4cnc5ccc(-c6cnn(C)c6)cc5c43)cc21,KINOMEscan,1 µM,baseline: DMSO control,remaining binding,91%
CNC1C[S+]2CC[S+]3CC[S+](C1)[Ru-4]321([N]=C=S)[n]2c3ccc(OC)cc3c3c4c(c5cc(F)c[n+]1c5c32)C(=O)NC4=O (stereo not drawn),KinomeScan,0.1 µM,baseline: untreated,remaining binding,100%
CNC(=O)C1CCN(c2cc(C)c(F)cc2NC(=O)c2ccc(-c3cc(O)ccc3C)c(C)c2)CC1,"binding, competition with immobilised ligand",1 µM,,remaining binding,76%
COc1c(OCCCN2CCOCC2)ccc2c1N=C(NC(=O)c1cnc(N)nc1)N1CCN=C21,"kinase activity, inhibitor",1 µM,baseline: untreated control,remaining activity,98%
Nc1ncc2c(n1)-c1c([nH]c3ccc(C4=CCOCC4)cc13)CCC2,"binding, competition with immobilised ligand",1 µM,,remaining binding,100%
COc1cc(Nc2nc(C)cc(-c3cnn4nc(OC)ccc34)n2)cc(C(F)(F)F)c1,inhibitor,1 µM,baseline: control,remaining activity,100%

# A few entries again:
SMILES,test,conditions,how to read,measurement,result
COc1c(OCCCN2CCOCC2)ccc2c1N=C(NC(=O)c1cnc(N)nc1)N1CCN=C21,"kinase activity, inhibitor",1 µM,baseline: untreated control,remaining activity,98%
O=C(Cc1ccc(OCc2ccccc2)cc1)NC1(C(=O)O)CCN(C(=O)c2ccc(-c3cccc(Cl)c3)cc2)CC1,"enzyme activity, inhibitor",10 µM,,activity vs control,88%
C=CC(=O)Nc1cccc(-c2cnc3[nH]cc(C(=O)NC(C)(C)C)c3n2)c1,"enzyme activity, inhibitor",0.1 µM,,inhibition,7%
